Assay results of several laboratories.
± marks the error that the study gave.

Compound	test	system	setting	how to read	measurement	result
Cl.N=C(CC(O)c1cc2c(F)cc(F)cc2c2cc(C(F)(F)F)ccc12)Nc1ccc(F)c(F)c1 (stereo not drawn)		human plasma	50 ng/mL, 24 h, 37 °C		degradation	37.8%
CSCC[C@H](NC(=O)[C@@H](N)CCSC)C(=O)N[C@@H](CCCNC(=N)N)C(=O)N[C@@H](Cc1c[nH]c2ccccc12)C(=O)N[C@@H](CO)C(=O)N[C@@H](CCCNC(=N)N)C(=O)N[C@@H](CCCCN)C(=O)N[C@@H](CCSC)C(=O)N1CCC[C@H]1C(=O)N[C@@H](CS)C(=O)N[C@H](C(=O)N[C@@H](CO)C(N)=O)C(C)C	12G5 competition, SUP-T1 cells	human plasma	20 µM, 8 h, 37 °C		remaining activity	1 ± 0.3%
CCOc1c([C@H](C)n2nc(C)c3c(N)ncnc32)cc(Cl)c(F)c1[C@@H]1CNC(=O)C1		patients with B-cell malignancies, plasma	oral, 20 mg once daily, cycle 1 day 15, monotherapy		Cmin	0.146 µM
N#C[C@@]1(c2ccc3c(N)ncnn23)O[C@H](CO)[C@@H](O)[C@H]1O	plasma protein binding	dog plasma	10 µM, time not given		recovery	102%
C=CCN1CC(=O)N2[C@@H](Cc3ccc(O)cc3F)C(=O)N(Cc3cccc(N4CC(N5CCN(CC)CC5)C4)n3)C[C@@H]2N1C(=O)NCc1ccccc1		advanced solid tumour patients	oral, 100 mg twice daily, grade ≥3, dose-escalation		treatment-related AST increased	0%
Nc1ncnc2c1ncn2[C@H]1C[C@@H]2OP(=O)(O)OC[C@H]3O[C@@H](n4cnc5c(N)ncnc54)C[C@@H]3OP(=O)(O)OC[C@H]2O1		non-tumor-bearing mice, serum	intravenous, 1 mg/kg, toxicity study		creatine kinase	2150 ± 721 U/L
CC(C)NCCCC[C@@H]1NC(=O)[C@H](Cc2ccc(O)cc2)NC(=O)[C@H](Cc2ccccc2)NC(=O)CC[C@H](C(=O)N[C@@H](CCCCNC(C)C)C(=O)N[C@@H](CCCCNC(=O)[C@H](CCC(=O)O)NC(=O)[C@H](CCC(=O)O)NC(=O)[C@H](CCC(=O)O)NC(=O)CN2CCN(CC(=O)O)CCN(CC(=O)O)CCN(CC(=O)O)CC2)C(N)=O)NC(=O)CNC(=O)[C@H](Cc2ccc3ccccc3c2)NC(=O)[C@@H](CCCNC(=N)N)NC1=O [gallium-68 labelled]		mouse with PC-3 xenograft, fat	intravenous, 1 h		tissue uptake	0.17 %ID/g
Cc1ccc(C)c(OCCCC(C)(C)C(=O)O)c1		human, plasma	oral, dose not given, day 12 predose, mean		trough plasma concentration	1980 ng/mL
Cc1ccc(Sc2ccccc2N2CCNCC2)c(C)c1	item: Diarrhea	healthy adult women	oral, 5 mg daily, 12 days		participants with TEAE	0%
COc1ncc(-c2nc3c(n2C(C)C)[C@H](c2ccc(Cl)cc2)N(c2cc(Cl)cn(C)c2=O)C3=O)c(OC)n1		human patients, plasma	oral, 100 mg, high-dose arm, cycle 1 day 1		AUC(0-t) geometric mean	14.3 µg·h/mL
Cc1cn(C(=O)c2c(-c3c(Cl)cc(Cl)cc3Cl)noc2C(C)(C)F)c2cccc(/C=C/C(=O)O)c12		human patients	500 mg bid, cycle 1 day 1		AUC(0-8h)	86.7 µg·h/mL
CC(C)(c1ccc(O)cc1)c1ccc(O)cc1		whole cow milk	20 nM nominal		dose fraction in milk fat	39.6%
CC(C)CCCC(C)C1CCC2C3CC=C4CC(OC(=O)CCCCC[N+]5=C(C=CC=C6N(C)c7ccccc7C6(C)C)C(C)(C)c6ccccc65)CCC4(C)C3CCC12C (stereo not drawn)	HPLC	mouse serum	5 h, 37 °C		degradation	~65%
COc1cc(Nc2ncc(F)c(Nc3ccc4c(n3)NC(=O)C(C)(C)O4)n2)cc(OC)c1OC		human	dose not given		single adjusting compartment volume	1.2 L/kg
C=CC(=O)NC1CCN(c2ncc3ncnc(Nc4ccc(Oc5ccc6c(c5)ncn6C)c(C)c4)c3n2)CC1	item: total radioactivity	healthy male volunteers, plasma	oral solution, 60 mg, together with: [14C]-labelled compound		AUC0–inf	30.5 µM·h
CO[C@H]1C[C@@H]2CC[C@@H](C)[C@@](O)(O2)C(=O)C(=O)N2CCCC[C@H]2C(=O)O[C@H]([C@H](C)C[C@@H]2CC[C@@H](O)[C@H](OC)C2)CC(=O)[C@H](C)/C=C(\C)[C@@H](O)[C@@H](OC)C(=O)[C@H](C)C[C@H](C)/C=C/C=C/C=C/1C		healthy adult horses	intravenous, 0.06 mg/kg, 4 h		heart rate	32.5 ± 3.1 beats/min
CCc1c(-c2ccccc2)c(-c2ccccc2)nn1-c1ccccc1-c1cccc(OCC(=O)O)c1		female Sprague-Dawley rat, ovary homogenate	oral, 10 mg/kg, 1 h		concentration	0.292 µg/mL
CC(C)c1nc(N(C)S(C)(=O)=O)nc(-c2ccc(F)cc2)c1/C=C/[C@@H](O)C[C@@H](O)CC(=O)O	item: toothache	healthy men	oral, dose not given, 8 days, treatment-emergent, crossover trial		subjects with adverse event	0%
CCN1/C(=C/C(C)=O)Sc2ccc(F)cc21		cynomolgus monkey	oral, 10 mg/kg, 4 h post-dose		heart rate	97 ± 22 beats/min
O=S(=O)(c1ccc(-c2ccc3nccc(Nc4ccncn4)c3c2)cc1)N1CCOCC1		female BALB/c mice, brain	intraperitoneal, 10 mg/kg, 8 h, mean, below LLOQ as zero		brain concentration	0 µg/mL
Cc1nc2ccc(F)cc2n1-c1nc(N)c(F)c(Nc2ccc(C(F)(F)F)cc2)n1		leiomyosarcoma patients	300 mg twice weekly, together with: dacarbazine 1000 mg/m^2	reference: subjects	myelosuppression-related DLT	14.2%
CC(=O)N1CC(C(=O)Nc2ccc(C3CCCCC3)cc2)C1	hepatocyte stability	cryopreserved human hepatocytes	1 µM		hepatic clearance	0.72 L/h/kg
Cn1nc2c(=O)n(C3CC3)cnc2c1[C@](O)(c1cnc(C(F)(F)F)c(Cl)c1)C(F)(F)F		humanized SCID mice, blood	30 mg/kg once daily, 6 days, infected		AUC(0-96 h)	923 µM·h
Cc1ccc(C(=O)N(CCCN)C(c2nc3snc(C)c3c(=O)n2Cc2ccccc2)C(C)C)cc1 (stereo not drawn)		human patients	intravenous, 2 mg/day		patients with CTCAE grade ≥3 events	100%
COc1ccnc(C(N)=O)c1O	soil adsorption	tested soils	geometric mean		KFoc	669 mL/g
Cn1ncnc1[C@H]1c2n[nH]c(=O)c3cc(F)cc(c23)N[C@@H]1c1ccc(F)cc1		human patients, plasma	oral, 600 µg/m2 twice daily day 1, day 5, dose level DL3, median, together with: temozolomide 20 mg/m2 daily days 2-6		AUC(0-8h)	0.0672 µg·h/mL

Compound	test	system	setting	how to read	measurement	result
CNCc1ccc(-c2[nH]c3cc(F)cc4c3c2CCNC4=O)cc1		human patients	oral, 600 mg twice daily, grade 4		dysgeusia incidence	0%
O=C(NCCc1cccnc1)c1ccc([C@H]2[C@@H](F)[C@@H](F)C[C@@H](F)[C@H]2F)cc1	liver microsome stability	cynomolgus liver microsomes	1 µM		hepatic clearance	1.62 L/h/kg
NC1(C(=O)N[C@@H](CCO)c2ccc(Cl)cc2)CCN(c2nc[nH]c3nccc2-3)CC1		metastatic CRPC patients	320 mg b.i.d., grade 3 to 4, treatment-related, together with: enzalutamide 160 mg daily		incidence of blood creatinine increased	0%
CCCCCCOC(=O)NC(=N)c1ccc(NCc2nc3cc(C(=O)N(CCC(=O)OCC)c4ccccn4)ccc3n2C)cc1	item: Myalgia	human	oral, 75 mg, alone		participants with adverse event	4.2%
CC(=O)O[C@H]1C(=O)[C@@]2(C)[C@H]([C@H](OC(=O)c3ccccc3)[C@]3(O)C[C@H](OC(=O)[C@H](O)[C@@H](NC(=O)c4ccccc4)c4ccccc4)C(C)=C1C3(C)C)[C@]1(OC(C)=O)CO[C@@H]1C[C@@H]2O	item: Dysgeusia	patients with advanced solid tumours	intravenous, dose not given, grade 1 and 2, possibly related to drug		adverse event incidence	28%
COCCC(=O)Nc1ccc(C2CCCCC2)cc1	liver microsome stability	mouse liver microsomes	1 µM		hepatic clearance	5.22 L/h/kg
N#Cc1ccc2c(c1)[C@H]1CCCN(C(=O)c3ccc4[nH]cnc4c3)[C@H]1C2		human, female	240 mg, end of trial		androstenedione level	4.6 nmol/L
CC(C)(C(=O)N1CCOc2c(C#N)cncc2C1)C(F)F	item: Gastrointestinal disorders	human	oral, 20 mg twice daily, 14 days, multiple ascending dose		subjects with adverse event	0%
C=CC(=O)NC1CCN(c2ncc3ncnc(Nc4ccc(Oc5ccc6c(c5)ncn6C)c(C)c4)c3n2)CC1		human, male, plasma	oral, 30 mg single dose, fasted, geometric mean		AUC(0-tz)	5.68 µM·h
O=C(Nc1nc2cccc(-c3ccc(CN4CCS(=O)(=O)CC4)cc3)n2n1)C1CC1	item: somnolence	rheumatoid arthritis patients	oral, 300 mg once daily, 4 weeks, any relatedness		treatment-emergent adverse events	0%
CNC(=O)c1ccc(-c2cnc3ncc(Cc4ccc5ncccc5c4)n3n2)cc1F		human, moderate NCI classification, plasma	oral, 200 mg, adjusted geometric mean		AUC(0-inf)	7.28 µg·h/mL
O=C(c1ccc([C@H]2[C@@H](F)[C@@H](F)C[C@@H](F)[C@H]2F)cc1)N1CC(O)C1	liver microsome stability	rat liver microsomes	1 µM		hepatic clearance	0.366 L/h/kg
C=CC(=O)Nc1cc(Nc2nccc(-c3cn(C4CC4)c4ccccc34)n2)c(OC)cc1N(C)CCN(C)C	autosampler stability	rat plasma	40 ng/mL, 4 h, 10 °C	reference: nominal concentration	relative error	0.2%
O=C(COCC(F)F)Nc1ccc(C2CCCCC2)cc1	liver microsome stability	dog liver microsomes	1 µM		hepatic clearance	1.74 L/h/kg
NC(=O)N1c2ccccc2CC(O)c2ccccc21 (stereo not drawn)	population PK modelling	human patients, plasma	dose not given, weight-scaled, no back-conversion		volume of distribution	20 L
COc1ccc2c(=O)n(C)c(-c3ccccc3)nc2c1		Sprague-Dawley rat, male, small intestine	oral, 30 mg/kg, 0.5 h		concentration	27.3 µg/mL
O=C(Cn1ccnc1)Nc1ccc([C@H]2[C@@H](F)[C@@H](F)C[C@@H](F)[C@H]2F)cc1		cryopreserved human hepatocytes	1 µM		hepatic clearance	0.372 L/h/kg
O=C(O)CCCOc1ccc([18F])cc1-c1cc(-c2ccccc2C(F)(F)F)n(-c2ccccc2)n1	radio-TLC	ddY mice male, plasma	intravenous, 37 MBq, 30 min		unchanged fraction of radioactivity	89.3 ± 0.9%
O=C(O)c1cccc(C(=O)O)c1		betaine/propylene glycol DES-water	DES mass fraction 0.60		apparent dissolution enthalpy	10.6 kJ/mol
CN(CCC#N)C(=O)c1ccc(C2CCCCC2)cc1	liver microsome stability	dog liver microsomes	1 µM		hepatic clearance	1.5 L/h/kg
CCCOc1ccc(NC(=O)CN2CCN(C)CC2)cc1-c1nc(CC)c(CC)c(=O)[nH]1		healthy Chinese men	10 mg, supine or semi-supine, together with: alcohol 0.5 g/kg	reference: baseline	maximal decrease in diastolic BP	-12.6 ± 5.45 mmHg
Cc1cc(-c2nccc3c2ccn3CC(=O)Nc2ccc(-c3cnccn3)cn2)ccn1		human	20 mg once daily, multiple ascending dose		subjects with contact dermatitis	0%
CC(C(=O)Nc1ccc([C@H]2[C@@H](F)[C@@H](F)C[C@@H](F)[C@H]2F)cc1)n1cncn1 (stereo partly drawn)		mouse liver microsomes	1 µM		hepatic clearance	1.44 L/h/kg
Cc1cc(Nc2ccc(S(F)(F)(F)(F)F)cc2)n2nc(C(C)(F)F)nc2n1	LC-MS/MS	human vivax malaria patients, plasma	oral, 600 mg, mean		AUC(0-168 h)	744 µg·h/mL
C[C@@H](c1ncncc1F)[C@](O)(Cn1cncn1)c1ccc(F)cc1F	item: Photopsia	human	oral, 200 mg		drug-related TEAE incidence	0%

A few entries again:
Compound	test	system	setting	how to read	measurement	result
Cc1ccc(Sc2ccccc2N2CCNCC2)c(C)c1	item: Diarrhea	healthy adult women	oral, 5 mg daily, 12 days		participants with TEAE	0%
COc1ncc(-c2nc3c(n2C(C)C)[C@H](c2ccc(Cl)cc2)N(c2cc(Cl)cn(C)c2=O)C3=O)c(OC)n1		human patients, plasma	oral, 100 mg, high-dose arm, cycle 1 day 1		AUC(0-t) geometric mean	14.3 µg·h/mL
Cc1cn(C(=O)c2c(-c3c(Cl)cc(Cl)cc3Cl)noc2C(C)(C)F)c2cccc(/C=C/C(=O)O)c12		human patients	500 mg bid, cycle 1 day 1		AUC(0-8h)	86.7 µg·h/mL
CC(C)(c1ccc(O)cc1)c1ccc(O)cc1		whole cow milk	20 nM nominal		dose fraction in milk fat	39.6%
CC(C)CCCC(C)C1CCC2C3CC=C4CC(OC(=O)CCCCC[N+]5=C(C=CC=C6N(C)c7ccccc7C6(C)C)C(C)(C)c6ccccc65)CCC4(C)C3CCC12C (stereo not drawn)	HPLC	mouse serum	5 h, 37 °C		degradation	~65%
COc1cc(Nc2ncc(F)c(Nc3ccc4c(n3)NC(=O)C(C)(C)O4)n2)cc(OC)c1OC		human	dose not given		single adjusting compartment volume	1.2 L/kg
C=CC(=O)NC1CCN(c2ncc3ncnc(Nc4ccc(Oc5ccc6c(c5)ncn6C)c(C)c4)c3n2)CC1	item: total radioactivity	healthy male volunteers, plasma	oral solution, 60 mg, together with: [14C]-labelled compound		AUC0–inf	30.5 µM·h
CO[C@H]1C[C@@H]2CC[C@@H](C)[C@@](O)(O2)C(=O)C(=O)N2CCCC[C@H]2C(=O)O[C@H]([C@H](C)C[C@@H]2CC[C@@H](O)[C@H](OC)C2)CC(=O)[C@H](C)/C=C(\C)[C@@H](O)[C@@H](OC)C(=O)[C@H](C)C[C@H](C)/C=C/C=C/C=C/1C		healthy adult horses	intravenous, 0.06 mg/kg, 4 h		heart rate	32.5 ± 3.1 beats/min
